Results of several laboratories.
Numbered parts are unrelated; each lists some results of a single study.
Chain of UniProt P27361 (whole entry, looked up): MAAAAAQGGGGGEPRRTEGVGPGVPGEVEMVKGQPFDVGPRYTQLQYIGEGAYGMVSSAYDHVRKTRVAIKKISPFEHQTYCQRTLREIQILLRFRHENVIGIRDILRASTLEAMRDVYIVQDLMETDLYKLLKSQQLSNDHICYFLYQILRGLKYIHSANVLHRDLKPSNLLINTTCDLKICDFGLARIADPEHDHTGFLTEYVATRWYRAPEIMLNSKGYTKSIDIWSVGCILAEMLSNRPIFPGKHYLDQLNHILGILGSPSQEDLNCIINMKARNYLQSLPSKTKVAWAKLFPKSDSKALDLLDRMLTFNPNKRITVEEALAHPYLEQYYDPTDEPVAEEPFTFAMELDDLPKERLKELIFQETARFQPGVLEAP
Chain of UniProt P29376 (whole entry, looked up): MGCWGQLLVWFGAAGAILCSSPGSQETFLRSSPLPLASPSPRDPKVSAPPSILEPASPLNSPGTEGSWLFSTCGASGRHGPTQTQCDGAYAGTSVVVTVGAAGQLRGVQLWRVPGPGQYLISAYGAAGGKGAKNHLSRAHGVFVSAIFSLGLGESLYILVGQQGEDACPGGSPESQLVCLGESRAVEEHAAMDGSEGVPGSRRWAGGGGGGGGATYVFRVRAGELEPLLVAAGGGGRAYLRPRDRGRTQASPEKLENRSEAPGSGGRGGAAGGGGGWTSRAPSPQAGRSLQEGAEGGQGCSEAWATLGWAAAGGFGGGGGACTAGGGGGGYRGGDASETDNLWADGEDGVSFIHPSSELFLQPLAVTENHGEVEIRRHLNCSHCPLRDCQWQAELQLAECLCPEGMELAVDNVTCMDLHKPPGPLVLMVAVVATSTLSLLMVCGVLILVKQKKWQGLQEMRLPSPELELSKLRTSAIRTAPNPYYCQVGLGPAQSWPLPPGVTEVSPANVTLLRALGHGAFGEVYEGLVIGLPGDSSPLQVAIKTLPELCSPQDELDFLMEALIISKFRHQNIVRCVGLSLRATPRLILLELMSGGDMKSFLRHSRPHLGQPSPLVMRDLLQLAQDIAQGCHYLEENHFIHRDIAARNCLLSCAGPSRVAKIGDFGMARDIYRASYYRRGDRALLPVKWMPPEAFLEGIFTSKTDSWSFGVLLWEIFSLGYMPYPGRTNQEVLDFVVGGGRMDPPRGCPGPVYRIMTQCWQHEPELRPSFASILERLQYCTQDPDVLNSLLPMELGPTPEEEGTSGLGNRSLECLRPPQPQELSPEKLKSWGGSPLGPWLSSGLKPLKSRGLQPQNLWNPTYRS
Chain of UniProt Q8N568 (whole entry, looked up): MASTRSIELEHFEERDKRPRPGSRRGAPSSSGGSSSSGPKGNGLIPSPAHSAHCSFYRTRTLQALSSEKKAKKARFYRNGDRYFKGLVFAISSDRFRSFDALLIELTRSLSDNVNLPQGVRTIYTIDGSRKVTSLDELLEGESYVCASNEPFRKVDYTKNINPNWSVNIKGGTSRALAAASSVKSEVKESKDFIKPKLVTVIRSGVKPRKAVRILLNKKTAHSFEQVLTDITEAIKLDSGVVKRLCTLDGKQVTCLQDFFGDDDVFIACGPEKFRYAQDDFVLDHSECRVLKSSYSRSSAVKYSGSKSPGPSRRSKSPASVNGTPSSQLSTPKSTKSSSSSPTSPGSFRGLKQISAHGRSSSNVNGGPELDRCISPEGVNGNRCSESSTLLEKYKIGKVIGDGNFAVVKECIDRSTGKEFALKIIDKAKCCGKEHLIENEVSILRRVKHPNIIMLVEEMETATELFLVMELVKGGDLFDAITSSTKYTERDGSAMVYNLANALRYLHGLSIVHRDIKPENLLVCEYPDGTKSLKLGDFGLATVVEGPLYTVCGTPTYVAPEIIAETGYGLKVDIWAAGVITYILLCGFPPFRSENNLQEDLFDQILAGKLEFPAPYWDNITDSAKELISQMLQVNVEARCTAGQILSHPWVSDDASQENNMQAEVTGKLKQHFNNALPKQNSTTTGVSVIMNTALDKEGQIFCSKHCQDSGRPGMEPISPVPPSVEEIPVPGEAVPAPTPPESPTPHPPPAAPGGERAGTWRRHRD
Chain of UniProt Q16832 (whole entry, looked up): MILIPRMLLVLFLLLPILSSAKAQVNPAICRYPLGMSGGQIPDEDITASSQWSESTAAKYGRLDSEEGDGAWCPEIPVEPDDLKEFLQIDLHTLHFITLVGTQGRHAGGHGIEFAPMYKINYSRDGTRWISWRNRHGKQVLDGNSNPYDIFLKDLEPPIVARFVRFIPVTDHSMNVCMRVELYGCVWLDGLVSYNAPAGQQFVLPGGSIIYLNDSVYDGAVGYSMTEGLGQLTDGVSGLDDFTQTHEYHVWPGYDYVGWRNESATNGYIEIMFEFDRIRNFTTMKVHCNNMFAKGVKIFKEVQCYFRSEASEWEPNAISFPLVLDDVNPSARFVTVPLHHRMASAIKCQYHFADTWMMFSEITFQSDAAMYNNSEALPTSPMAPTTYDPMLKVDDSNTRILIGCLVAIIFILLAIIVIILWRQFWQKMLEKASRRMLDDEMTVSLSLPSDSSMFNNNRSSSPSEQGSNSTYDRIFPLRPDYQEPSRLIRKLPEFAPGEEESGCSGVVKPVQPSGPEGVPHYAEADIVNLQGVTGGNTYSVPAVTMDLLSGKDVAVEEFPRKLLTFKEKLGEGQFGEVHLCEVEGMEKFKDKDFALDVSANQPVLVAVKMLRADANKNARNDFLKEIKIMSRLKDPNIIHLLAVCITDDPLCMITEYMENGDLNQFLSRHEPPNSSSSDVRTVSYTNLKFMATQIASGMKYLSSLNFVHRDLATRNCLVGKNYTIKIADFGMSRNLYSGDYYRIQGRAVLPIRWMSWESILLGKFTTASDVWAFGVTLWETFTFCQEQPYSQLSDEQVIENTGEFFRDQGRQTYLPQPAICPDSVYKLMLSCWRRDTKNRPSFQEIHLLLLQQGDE
Chain of UniProt P49760 (whole entry, looked up): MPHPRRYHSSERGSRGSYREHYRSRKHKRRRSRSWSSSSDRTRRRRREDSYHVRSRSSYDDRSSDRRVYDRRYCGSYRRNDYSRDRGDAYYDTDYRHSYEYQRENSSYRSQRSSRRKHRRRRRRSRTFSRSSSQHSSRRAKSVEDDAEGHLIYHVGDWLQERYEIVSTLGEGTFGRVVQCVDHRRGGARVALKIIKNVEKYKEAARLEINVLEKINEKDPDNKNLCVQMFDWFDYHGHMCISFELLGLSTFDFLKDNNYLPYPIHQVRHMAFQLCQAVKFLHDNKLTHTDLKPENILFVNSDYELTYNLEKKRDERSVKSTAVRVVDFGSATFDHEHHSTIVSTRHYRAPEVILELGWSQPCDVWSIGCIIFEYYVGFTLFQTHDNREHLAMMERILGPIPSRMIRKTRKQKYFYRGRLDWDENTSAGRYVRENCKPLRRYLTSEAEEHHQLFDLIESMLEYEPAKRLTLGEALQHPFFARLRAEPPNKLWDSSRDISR
Chain of UniProt Q13555 (whole entry, looked up): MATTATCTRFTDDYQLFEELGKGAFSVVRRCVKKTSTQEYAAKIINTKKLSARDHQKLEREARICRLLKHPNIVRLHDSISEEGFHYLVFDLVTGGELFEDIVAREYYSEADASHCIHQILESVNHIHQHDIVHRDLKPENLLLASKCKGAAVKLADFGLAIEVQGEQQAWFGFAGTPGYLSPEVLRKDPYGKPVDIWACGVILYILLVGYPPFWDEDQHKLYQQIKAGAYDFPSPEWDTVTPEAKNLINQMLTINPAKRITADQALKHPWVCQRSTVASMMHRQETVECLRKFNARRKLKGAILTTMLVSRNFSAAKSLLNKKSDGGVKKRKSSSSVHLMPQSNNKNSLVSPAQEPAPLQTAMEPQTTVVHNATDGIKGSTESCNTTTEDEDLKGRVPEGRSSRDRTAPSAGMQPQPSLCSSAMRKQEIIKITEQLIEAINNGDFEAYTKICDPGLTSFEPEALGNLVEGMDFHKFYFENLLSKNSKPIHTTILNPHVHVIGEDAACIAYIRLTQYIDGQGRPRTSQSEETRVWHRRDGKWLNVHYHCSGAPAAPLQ

Set 1
Read-out: AlphaScreen signal
Method: AlphaScreen counter screen
Matrix: His6 peptide without bromodomain
Concentration: 50 µM
Setting: assay interference check
SMILES | inhibition [%]
Fc1ccc(Nc2ncc3c(n2)CCNC3)cc1 | 13.1
CCOc1cc(C=C(C#N)C(N)=O)cc(CSc2ccccc2)c1O | 30.7
CN(C)C/C=C/C(=O)Nc1cc2c(Nc3ccc(F)c(Cl)c3)ncnc2cc1O[C@H]1CCOC1 | 24.6
Cc1c[nH]c(-c2cnc(NCCNc3ccc(C#N)cn3)nc2-c2ccc(Cl)cc2Cl)n1 | 12.5
COc1ccccc1NC(=O)N=c1[nH]nc(C=Cc2ccccc2)s1 | 14.2
COc1cc2ncnc(Nc3cccc(Br)c3)c2cc1OC | 20.8
Fc1ccc(-c2[nH]c3ncccc3c2CN2CCCC2)cc1 | 2.05
O=C(Nc1cccc(Nc2ncc(Br)c(NCCc3cnc[nH]3)n2)c1)N1CCCC1 | 34
O=C1Nc2ccccc2C1=C1Nc2ccccc2C1=NO | 83.7
C[C@]1(O)C[C@@H](c2nc(-c3ccc4ccc(-c5ccccc5)nc4c3)c3c(N)nccn32)C1 | 41.5
O=c1cc(-c2ccc(O)cc2)oc2cc(O)cc(O)c12.O=c1cc(-c2ccc(O)cc2)oc2cc(O)cc(O)c12 | 21.3
COc1ccc(-c2nnc3ccc(SCC(=O)Nc4cc(C)on4)nn23)cc1OC | 11.2
Br.Br.CCOc1ccc(Nc2nc(-c3c(C)nc4ccccn34)cs2)cc1 | 85.2
Cc1ccc2c(c1)C(=NNC(=O)c1cccc(O)c1)C(=O)N2 | 14.1
CCCN(CCC)CCCNc1ccc2nnc(-c3ccc(F)cc3)n2n1 | 11.2

Set 2
SMILES: Cc1c(C(=O)O)cc(-c2ccc(C3CCNCC3)cc2)c2ccc(-c3ccc(C(F)(F)F)cc3)cc12
Method: competition with immobilised ligand
Concentration: 1 µM
target | test | remaining binding [%]
DCLK2 (Homo sapiens, UniProt Q8N568) | binding | 100
TNNI3K (Homo sapiens, UniProt Q59H18) | cell-free assay | 100
MAPK9 (Homo sapiens, UniProt P45984) | binding | 100
ACVR2A (Homo sapiens, UniProt P27037) | cell-free assay | 87
EGFR (Homo sapiens, UniProt P00533, del747-752/P753S) | cell-free assay | 100
CAMK2G (Homo sapiens, UniProt Q13555) | binding | 100
FLT3 (Homo sapiens, UniProt P36888, D835H) | binding | 90
EPHB2 (Homo sapiens, UniProt P29323) | cell-free assay | 92
CSNK1E (Homo sapiens, UniProt P49674) | binding | 96
CDK11A (Homo sapiens, UniProt Q9UQ88) | binding | 100
Ribosomal protein S6 kinase alpha-4, C-terminal kinase domain (RPS6KA4, Homo sapiens, UniProt O75676) | binding | 100
EGFR (Homo sapiens, UniProt P00533, A750P/del747-749) | cell-free assay | 100
KDR (Homo sapiens, UniProt P35968) | cell-free assay | 100
SGK2 (Homo sapiens, UniProt Q9HBY8) | binding | 100
FLT3 (Homo sapiens, UniProt P36888, K663Q) | binding | 100
CAMK2B (Homo sapiens, UniProt Q13554) | cell-free assay | 100
MAPK6 (Homo sapiens, UniProt Q16659) | binding | 100
NEK10 (Homo sapiens, UniProt Q6ZWH5) | binding | 100
LTK (Homo sapiens, UniProt P29376) | cell-free assay | 100
PDGFRB (Homo sapiens, UniProt P09619) | cell-free assay | 100
ERBB2 (Homo sapiens, UniProt P04626) | binding | 100
CLK2 (Homo sapiens, UniProt P49760) | binding | 100
Myosin-IIIa (MYO3A, Homo sapiens, UniProt Q8NEV4) | binding | 100
DDR2 (Homo sapiens, UniProt Q16832) | cell-free assay | 100
MAPK3 (Homo sapiens, UniProt P27361) | binding | 100

Set 3
Target: Serine/threonine-protein kinase 24 (STK24, Homo sapiens, UniProt Q9Y6E0)
Chain of UniProt Q9Y6E0 (whole entry, looked up): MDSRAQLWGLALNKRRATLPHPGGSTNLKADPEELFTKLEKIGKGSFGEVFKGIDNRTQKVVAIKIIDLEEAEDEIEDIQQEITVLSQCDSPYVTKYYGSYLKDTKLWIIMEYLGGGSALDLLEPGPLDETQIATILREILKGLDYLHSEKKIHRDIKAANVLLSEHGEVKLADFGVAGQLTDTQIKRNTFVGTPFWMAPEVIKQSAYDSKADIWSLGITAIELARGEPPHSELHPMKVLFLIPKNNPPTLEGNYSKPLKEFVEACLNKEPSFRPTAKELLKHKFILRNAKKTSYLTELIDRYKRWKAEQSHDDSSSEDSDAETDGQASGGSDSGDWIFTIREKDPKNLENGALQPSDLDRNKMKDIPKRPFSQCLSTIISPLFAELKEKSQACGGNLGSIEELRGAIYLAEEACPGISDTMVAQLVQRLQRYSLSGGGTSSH
Read-out: enzyme activity
Mode: inhibitor
Concentration: 0.5 µM
Baseline: control
SMILES | remaining activity [%]
CC(C)N(CCC(=O)c1ccc2ccccc2c1)Cc1ccccc1 | 96.6
CCCCc1c(-c2ccc(O)cc2)[nH]c2nccnc12 | 83.6
Clc1ccc(Nc2nnc(Cc3ccncc3)c3ccccc23)cc1 | 98.7
CC(C)(C)c1nc2c3cc[nH]c(=O)c3c3cc(F)ccc3c2[nH]1 | 82.4
COc1cc2c(N3CCN(C(=O)Nc4ccc(OC(C)C)cc4)CC3)ncnc2cc1OCCCN1CCCCC1 | 102
CC(C)n1cnc2c(Nc3cccc(Cl)c3)nc(NCCO)nc21 | 87.7
O=C(O)/C=C/c1cc(Br)c(Br)c(Br)c1Br | 86.1
NC(=O)c1cccc(-c2cc(Nc3ccc(OC(F)(F)F)cc3)ncn2)c1 | 89.5
N#C/C(=C(/N)SC1C=CC=CC1)c1cccc(C(O)c2ccncc2)c1 (stereo not shown) | 94.8
O=c1c(-c2ccc(F)cc2)c(-c2ccncc2)[nH]n1-c1ccc(Cl)cc1 | 111
CCN(CC)CCCCN1c2ccccc2Oc2ccc(Cl)cc21 | 90
COc1cc2c(Nc3ccc(Br)cc3F)ncnc2cc1OCC1CCN(C)CC1 | 104
Nc1nc(Nc2ccc(S(N)(=O)=O)cc2)nn1C(=S)Nc1c(F)cccc1F | 2.88
O=C1NC(=O)/C(=C/c2ccc3c(c2)OC(F)(F)O3)S1 | 91.9
NC(=O)c1ccc(-c2nc(-c3ccc4c(c3)OCCO4)c(-c3ccccn3)[nH]2)cc1 | 90.4
CNc1cc2c(Nc3cccc(Br)c3)ncnc2cn1 | 102
O=Nc1c(-c2c(O)[nH]c3ccccc23)[nH]c2ccccc12 | 62.6
FC(F)(F)c1ccc(/C=C/c2nc(COc3ccc(CCCCn4ccnn4)cc3)co2)cc1 | 101
C[C@@H](N)[C@H]1CC[C@H](C(=O)Nc2ccncc2)CC1 | 101
O=C(c1ccccc1)c1ccc(N2CCOCC2)cc1O | 89
O=C1c2ccccc2-c2nc3nnnn3nc21 | 101
c1cc(-c2cnn3cc(-c4ccc(OCCN5CCCCC5)cc4)cnc23)ccn1 | 95.5
N#CC(c1ccnc(NCCc2cccnc2)n1)c1nc2ccccc2s1 (stereo not shown) | 95.6

Set 4
Target: Calcium/calmodulin-dependent protein kinase type II subunit alpha (CAMK2A, Homo sapiens, UniProt Q9UQM7)
Chain of UniProt Q9UQM7 (whole entry, looked up): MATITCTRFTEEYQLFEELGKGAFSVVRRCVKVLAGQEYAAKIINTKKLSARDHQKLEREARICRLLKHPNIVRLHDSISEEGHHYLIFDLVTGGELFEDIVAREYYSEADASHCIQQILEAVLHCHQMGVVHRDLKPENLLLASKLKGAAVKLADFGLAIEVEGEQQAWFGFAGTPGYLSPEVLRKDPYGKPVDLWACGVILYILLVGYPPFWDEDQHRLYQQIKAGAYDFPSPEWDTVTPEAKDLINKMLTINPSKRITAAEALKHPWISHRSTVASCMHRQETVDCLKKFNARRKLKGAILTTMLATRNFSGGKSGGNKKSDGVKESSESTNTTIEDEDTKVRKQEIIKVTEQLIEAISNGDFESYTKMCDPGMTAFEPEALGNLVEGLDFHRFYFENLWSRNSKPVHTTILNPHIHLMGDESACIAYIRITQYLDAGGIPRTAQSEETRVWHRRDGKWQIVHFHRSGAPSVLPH
Read-out: enzyme activity
Mode: inhibitor
Concentration: 10 µM
SMILES | inhibition [%]
CCOC(=O)[N-]c1c[n+](N2CCOCC2)no1 | -6
CCCOc1ccc(C(=O)OCCN(CC)CC)cc1N | -5
C[C@]12CC[C@@H]3c4ccc(O)cc4CC[C@H]3[C@@H]1CC[C@@H]2OC(=O)CCC1CCCC1 | -8
CN(C)CCC=C1c2ccccc2C(C)(C)c2ccccc21 | -9
CCCCCCCCCCCCCC(=O)OCC(O)CO (stereo not shown) | 3
CC(C)=CCc1c(O)ccc(C(=O)[C@@H]2[C@@H](c3c(O)cc(O)c4c(=O)c(CC=C(C)C)c(-c5ccc(O)cc5O)oc34)C=C(C)C[C@H]2c2ccc(O)cc2O)c1O | -16
Cc1cnc(C(=O)N[C@H]2CCCCC/C=C\[C@@H]3C[C@@]3(C(=O)NS(=O)(=O)C3CC3)NC(=O)[C@@H]3C[C@@H](Oc4nc5ccccc5c5ccccc45)CN3C2=O)cn1 | -7
CCC[C@@H]1C[C@@H](C(=O)N[C@@H]([C@H]2O[C@H](SC)[C@H](OP(=O)(O)O)[C@@H](O)[C@H]2O)[C@H](C)Cl)N(C)C1 | -15
OC[C@H]1O[C@@](CO)(OC[C@@]2(OC[C@@]3(OC[C@@]4(O[C@H]5O[C@H](CO)[C@@H](O)[C@H](O)[C@H]5O)O[C@H](CO)[C@@H](O)[C@@H]4O)O[C@H](CO)[C@@H](O)[C@@H]3O)O[C@H](CO)[C@@H](O)[C@@H]2O)[C@@H](O)[C@@H]1O | 25
COc1cc(-c2oc3cc(O)cc(O)c3c(=O)c2O[C@@H]2O[C@H](CO[C@@H]3O[C@@H](C)[C@H](O)[C@@H](O)[C@H]3O)[C@@H](O)[C@H](O)[C@H]2O)ccc1O | -108
NC(=O)[C@@H]1CCCN1C(=O)[C@H](Cc1c[nH]cn1)NC(=O)[C@@H]1CCC(=O)N1 | -8
C[C@@H]1O[C@@H](OC[C@H]2O[C@@H](Oc3c(-c4ccc(OCCO)c(OCCO)c4)oc4cc(OCCO)cc(O)c4c3=O)[C@H](O)[C@@H](O)[C@@H]2O)[C@H](O)[C@H](O)[C@H]1O | 2
C=CC(=O)Nc1cccc(Oc2nc(Nc3ccc(N4CCN(C)CC4)cc3)nc3ccsc23)c1 | 3
CC(=O)N1CCN(c2ccc(OC[C@H]3CO[C@](Cn4ccnc4)(c4ccc(Cl)cc4Cl)O3)cc2)CC1 | 1
O=C(OC[C@H]1O[C@@H](Oc2c(-c3ccc(O)c(O)c3)oc3cc(O)cc(O)c3c2=O)[C@H](O)[C@@H](O)[C@H]1O)c1cc(O)c(O)c(O)c1 | -51
C/C(=C/CC[C@]1(CO)CC[C@]2(C)[C@H](CC[C@@H]3[C@@]4(C)CC[C@H](O[C@@H]5O[C@H](CO)[C@@H](O)[C@H](O)[C@H]5O[C@@H]5O[C@H](CO)[C@@H](O)[C@H](O)[C@H]5O)[C@@](C)(CO[C@@H]5O[C@H](CO)[C@@H](O)[C@H](O)[C@H]5O)[C@@H]4CC[C@]32C)[C@H]1O)CO | 8

Repeated from above (set 1):
SMILES | inhibition [%]
Cc1c[nH]c(-c2cnc(NCCNc3ccc(C#N)cn3)nc2-c2ccc(Cl)cc2Cl)n1 | 12.5
COc1ccccc1NC(=O)N=c1[nH]nc(C=Cc2ccccc2)s1 | 14.2
COc1cc2ncnc(Nc3cccc(Br)c3)c2cc1OC | 20.8
Fc1ccc(-c2[nH]c3ncccc3c2CN2CCCC2)cc1 | 2.05
O=C(Nc1cccc(Nc2ncc(Br)c(NCCc3cnc[nH]3)n2)c1)N1CCCC1 | 34
O=C1Nc2ccccc2C1=C1Nc2ccccc2C1=NO | 83.7
C[C@]1(O)C[C@@H](c2nc(-c3ccc4ccc(-c5ccccc5)nc4c3)c3c(N)nccn32)C1 | 41.5
O=c1cc(-c2ccc(O)cc2)oc2cc(O)cc(O)c12.O=c1cc(-c2ccc(O)cc2)oc2cc(O)cc(O)c12 | 21.3
COc1ccc(-c2nnc3ccc(SCC(=O)Nc4cc(C)on4)nn23)cc1OC | 11.2
Br.Br.CCOc1ccc(Nc2nc(-c3c(C)nc4ccccn34)cs2)cc1 | 85.2
Cc1ccc2c(c1)C(=NNC(=O)c1cccc(O)c1)C(=O)N2 | 14.1
CCCN(CCC)CCCNc1ccc2nnc(-c3ccc(F)cc3)n2n1 | 11.2
